Measured values collected from several papers.
Protocols differ between the studies behind these lines. Values joined by “and” are separate records of one study, mostly repeats; a detail may differ. ± gives the spread as reported.

Structure (SMILES) | tested on | test | test system | conditions | scale | endpoint | result
CC(C(=O)Nc1ccc([C@H]2[C@@H](F)[C@@H](F)C[C@@H](F)[C@H]2F)cc1)n1cncn1 (some centres unmarked) | – | – | cryopreserved rat hepatocytes | 1 µM | – | hepatic clearance | 10 mL/min/kg
Cc1nn(-c2nc3ccc(Cl)c(Cl)c3[nH]2)c(O)c1C1OC(=O)c2ccccc21 (centres unmarked) | RAW-ISG | IFN luciferase reporter | – | 80 µM, with: HT-DNA | – | inhibition | 99% and 99.2% and 98.7% and 99.1%
CN(C)C(=O)c1cncc(-c2cnc3[nH]cc(-c4ccccc4C#N)c3c2)c1 | Ba/F3 BCR-ABL wild type | cell proliferation | – | 72 h | – | GI50 | 0.615 ± 0.0362 µM
C[C@H](Nc1ccc2c(c1)OCCn1cc(N3C(=O)OC[C@H]3C(F)F)nc1-2)C(N)=O | MFM-223 | cell growth, CellTiter-Glo | – | 120 h | – | Hill coefficient GR curve | 0.893
COc1cc(/C=C/C(=O)N2CCC=CC2=O)cc(OC)c1OC | MDA-MB-468 | qRT-PCR, item: MAPK10 | – | 30 µM, 6 h | baseline: time zero | mRNA level | 155 ± 133%
COc1c(C)c(OS(=O)(=O)c2ccc3ccccc3c2)c(C)c(O)c1C(=O)/C=C/c1ccccc1 | KKU-M213 | SRB | – | – | baseline: normal over KKU-M213 IC50 | selectivity index | 1.09
c1ccc2[nH]ccc2c1 | HCT-8 | RNA-seq, item: SPC24 | – | concentration not given | – | mRNA level, LS mean | 11.9 counts per million
CS(=O)(=O)N1CCN(Cc2cc3nc(-c4cccc5[nH]ncc45)nc(N4CCOCC4)c3s2)CC1 | mouse CD4 T-cell blasts | IL-2 driven proliferation, 3H-thymidine uptake | – | – | – | EC90 | 1.5 µM
CC(=O)Nc1cccc(-n2c(=O)n(C3CC3)c(=O)c3c(Nc4ccc(I)cc4F)n(C)c(=O)c(C)c32)c1 | LoVo (KRAS G13D) | cell viability, resazurin | – | 50.00 nM, 72 h | baseline: DMSO | fractional effect | 0.677 and 0.633
C=CC1=C(C)c2cc3[n-]c(cc4nc(cc5[n-]c(cc1n2)c(C)c5C=C)C(C)=C4CCC(=O)O)c(CCC(=O)O)c3C.[Zn+2] | SH-SY5Y | RNA-seq, item: FAM30A mRNA | – | 5 µM, 5 h | baseline: untreated cells | fold change | 2.6
Cc1cc(N2CCc3c(c(C)nn3CC34CCC(NC(=O)[C@@H]5COCCN5)(CC3)CC4)C2)c2cnn(C)c2n1 | human PBMC | qRT-PCR, item: OASL mRNA | – | 100 nM, with: ssRNA | – | inhibition | 91%
Clc1nc(NCc2ccco2)c2[nH]cnc2n1 | iPSC-derived cardiomyocytes | RNA-seq, item: ASPG chr14 exon ending 104111601 | – | unit not given | baseline: DMSO minus compound | ΔPSI | -0.294
COc1c(C)c(OCc2ccccc2)c(C)c(O)c1C(=O)/C=C/c1ccccc1 | KKU-M213 | SRB | – | – | baseline: normal over KKU-M213 IC50 | selectivity index | 0.97
O=C(/C=C/C=C/C=C/C1CCCCC1)NC1=C[C@@](O)(/C=C/C=C/C=C/C(=O)NC2=C(O)CCC2=O)[C@@H]2O[C@@H]2C1=O | CAL-27 | cell growth, CellTiter-Glo | – | 78 h | – | GI50 | 17.6 µM
COc1cnc2cccc(N3CCc4c(cc(Cn5ccnc5C)cc4-c4cn(C)nc4C(F)(F)F)C3=O)c2c1 | PLC-PRF-5 | cell growth, inhibitor | – | 120 h | – | EC50 | > 30 µM
CC/C(=N\NC(=O)NCc1cccc(O)c1)c1ccc(O)c(C)c1O | SK-OV-3 | ATP | – | 1 µM, 4 days, 3D U-bottom low-attachment | baseline: untreated | relative cell number | 115%
NC(=O)c1ccc(-c2nc(-c3ccccn3)c(-c3ccc4c(c3)OCO4)[nH]2)cc1 | Trypanosoma brucei brucei | cell growth | – | concentration not given, PKIS HTS | – | inhibition | 18.1%
Nc1cccc2c1C(=O)N(C1CCC(=O)NC1=O)C2=O (centres unmarked) | MM1.S resistant to compound | XTT | – | 0.4 µM | – | viability | 85% and 114% and 93%
O=C(Cn1ccnc1)Nc1ccc(C2CCCCC2)cc1 | – | – | cryopreserved mouse hepatocytes | 1 µM | – | hepatic clearance | 42 mL/min/kg
C=CCOc1c(C)c(O)c(C(=O)/C=C/c2ccccc2)c(OC)c1C | SH-SY5Y | SRB | – | – | baseline: normal over SH-SY5Y IC50 | selectivity index | 1.12
CC(=O)c1nn(-c2ccc(Cl)cc2)/c(=N/N=C(\C)c2ccc(NC(=O)c3ccccc3)cc2)s1 | HepG2 | – | – | 2.5 µM | – | toxicity | 97.1% and 96.6%
Nc1ncnc2nc(-c3ccc(N4CCOCC4)nc3)cc(-c3cccc(Br)c3)c12 | activated human T cells | – | human | 1 nM | – | T cell proliferation | 1.5% and 0.326% and 0.2%
CC(C)(c1ccc(O)cc1)c1ccc(O)cc1 | HepG2 spheroids | planimetry | – | 2.5 µM, 0 to 24 h | baseline: mean area of 72 h spheroids | spheroid area increase | 120%
Nc1ncnc2c1ncn2[C@@H]1O[C@H](CO)[C@@H](O)[C@H]1O | activated human T cells | item: UDP | – | 30 µM | baseline: DMSO | log2 fold change | -3.3

Structure (SMILES) | tested on | test | test system | conditions | scale | endpoint | result
Cn1cc(Nc2nccc(-c3ccc4c(c3)CN(C3COC3)CC[C@H]4NC(=O)c3cn(C(C)(C)C)nn3)n2)cn1 | human B cells | – | – | 100 nM, 64 h, non-stimulation-regulated genes, with: anti-IgM | – | number of downregulated genes | 930
O=c1ccn([C@@H]2O[C@H](CO)[C@@H](O)[C@H]2O)c(=O)[nH]1 | activated human T cells | – | human | 3.16 µM | – | T cell proliferation | 101% and 100% and 87.5% and 93.9% and 88%
COc1ncccc1CN[C@H]1[C@@H](C)[C@@H]1c1ccccc1 (relative stereo) | THP-1 cells expressing NTR | MTS | – | 72 h | – | GI50 | > 50 µM
O=c1[nH]nc(OCCCc2ccc(Cl)cc2)c(NCc2cccnc2)c1Br | HEK293T | RNA-seq, item: SLC1A4 mRNA | – | 10 µM, 6 h | baseline: vehicle | log2 fold change | 1.43
Cc1ccc(CNC(=O)Cn2cc(CSc3nc4ccccc4[nH]3)nn2)cc1 | MDA-MB-231 | MTT | – | 7.81 ppm | – | cytotoxicity | 65.2%
COc1cc(C(=O)N2CCC(N3CCN(C)CC3)CC2)ccc1Nc1ncc2c(n1)N(C)c1ccccc1C(=O)N2C | SNU-1040 | – | – | 330 nM, 3 days, 100% DMSO | baseline: vehicle | cell growth | 63%
CC1(C)CCC(CN2CCN(c3ccc(C(=O)NS(=O)(=O)c4ccc(NCC5CCOCC5)c([N+](=O)[O-])c4)c(Oc4cnc5[nH]ccc5c4)c3)CC2)=C(c2ccc(Cl)cc2)C1 | KCL-22 | annexin V/PI flow cytometry, item: annexin V+/PI+ | – | 3.2 µM, 24 h | – | late apoptotic cells | 6.2%
CCCCCCCCCCCCCCCCCCOc1cccc(CC(=O)OCC[N+](C)(C)C)c1 | NSCLC panel (nine cell lines) | – | – | 10 µM | – | mean growth inhibition | 6.55%
CC(C)NCC(O)c1ccc(O)c(O)c1 (centres unmarked) | mouse ventricular cardiomyocytes | – | – | dose not given, 0.327 s | – | sarcomere length | 1.8 µm
CCCCCCCCCCCCCCCCCCOc1cccc(CC(=O)OCC[N+]2(C)CCCCC2)c1 | NSCLC panel (nine cell lines) | – | – | 10 µM | – | mean growth inhibition | 12.5%
O=C1[C@H]2CCCN2[C@H](c2cccc3c2OCO3)N1c1ccc(Cl)c(Cl)c1 (racemic) | PC-12 | – | – | 50 µM, 2 days | – | mutant huntingtin protein level | no effect
CCCCCCCCCCCCCCCCCCOc1cccc(CC(=O)OCCC[N+](C)(C)C)c1 | NSCLC panel (nine cell lines) | – | – | 10 µM | – | mean growth inhibition | 14.3%
COc1ccc(NC(=S)N/N=C/c2cccc3cc4ccccc4nc23)cc1 | HeLa | annexin V/PI flow cytometry | – | IC12.5, 48 h | – | necrotic cells | 3.23 ± 0.18%
COc1ccc(-n2nc(C(C)=O)s/c2=N\N=C(/C)c2ccc(NC(=O)c3ccc(Cl)cc3)cc2)cc1 | MCF7 | – | – | 1.25 µM | – | viability | 8.8%
CCn1cc(-c2cc(Cn3ccoc3=N)cc3c2CCN([C@@H](C)c2cc(OC)ccn2)C3=O)c(C(F)(F)F)n1 | KLE | cell growth, inhibitor | – | 120 h | – | EC50 | 0.107 µM
CCCCN1C[C@H](O)[C@@H](O)[C@@H](O)[C@H]1CO | sample A patient fibroblasts | GlcCer level lowering, LC-MS/MS, item: GlcCer d18:1/16:0 | – | 216 h | – | IC50 | 15.1 µM
Cc1cc(Nc2ncc(Cl)c(Nc3ccccc3S(=O)(=O)C(C)C)n2)c(OC(C)C)cc1C1CCNCC1 | CLB-BAR | phosphoproteomics LC-MS/MS, item: FRS2 phosphorylation | – | 200 nM, 60 min | baseline: untreated | log2 fold change | -4.11
C=CCn1c(=O)c2cnc(Nc3ccc(N4CCN(C)CC4)cc3)nc2n1-c1ccc2c(n1)[C@@](O)(CC)CC2 | MDA-MB-231 | flow cytometry | – | concentration not given | – | G1 phase cells | 33.7%
CCCCCN1C[C@H](O)[C@@H](O)[C@H](O)[C@@H]1CO | Sandhoff disease patient fibroblasts | glycosphingolipid lowering, LC-MS/MS, item: Gb3 d18:0/22:0 | – | – | – | IC50 | 0.404 µM
Cc1cccc(-c2[nH]c(CNc3ccccc3F)nc2-c2ccc3ncnn3c2)n1 | RPMI-8226 | flow cytometry, item: CD2 | – | concentration not given | baseline: comparator compound alone | surface marker level | 59%
Cn1cnc2c(F)c(Nc3ccc(Br)cc3Cl)c(C(=O)NOCCO)cc21 | SNU-1040 | – | – | 0.33 µM, 72 h, 100% DMSO | baseline: vehicle | cell growth | 102%
CCn1cc(-c2cc(Cn3ccnc3)cc3c2CCN([C@H](c2cc(OC)ccn2)C2CC2)C3=O)c(C(F)(F)F)n1 | SNU1 | cell growth, inhibitor | – | 120 h | – | EC50 | > 30 µM
Cn1cc(-c2ccc(-c3cncc(Cl)c3N3CCC4(CCNC4=O)CC3)cc2)cn1 | COLO 205 | gene expression, microarray, item: IFIT2 mRNA | – | concentration not given, 6 h | baseline: untreated cells | log2 fold change | 4.59
